{"data": "Results of several laboratories", "note": "Each numbered part is a random draw from the data of one study; scales do not carry over between parts."}
{"data": "Study 1", "target": "Fragile X messenger ribonucleoprotein 1, C-terminal low-complexity region (Fmr1, Mus musculus, UniProt P35922)", "technique": "RNA Bind-n-Seq", "molecule type": "RNA", "sample": "in vitro", "concentration": "200 nM", "notes": "whole 134-nt RNA, ends assumed", "added": "150 mM KCl", "reference": "input library", "direction": "higher = stronger binding", "all sequences stand within": "GGGAGUUCUACAGUCCGACGAUC … UGGAAUUCUCGGGUGUCAAGG"}
{"Sequence": "UGGGAGGUGGAUUUUGUCUAUUUUUUUAGCUCAUUUCCAGGGGUGGGAAUUUUUUUUUAAUAUGUGUCAUGAAUAAAGUUGUUUUUGAAA", "log2 enrichment": 0.16}
{"Sequence": "UUGGCUACAAUGCAGAGACACAGAAACUACUAUGCAAGAAUGGGGAAACGCUGCUAGGAGCCGUGAACUUCUUUGUCUCUAGCAUCAACA", "log2 enrichment": -0.657}
{"Sequence": "UACCUGAUCAAUGACAGAGCCUUCUGAGGACAUUCCAAGACAGUAUACAGUCCUGUGGUCUCCUUGGAAAUCCGUCUAGUUAACAUUUCA", "log2 enrichment": -1.68}
{"Sequence": "AAGUCCUGUGCUACACAUCGUAUGUACCGAAUCGGCCCCGGGGCCCCGGCCCCGGGGAAAGUAUUAUGUUACGCCGUUCGGAUCUGCACU", "log2 enrichment": -1.16}
{"Sequence": "AAGUCCUGUGCUACACAUCGUAUGUACCGAAUCGGGGUGGGGAAAAAGGGGUGGGGAAAGUAUUAUGUUACGCCGUUCGGAUCUGCACUU", "log2 enrichment": 0.946}
{"Sequence": "UGGCCCUGGUGGCAUGCGGGCAGGAAGAGGUGGCCUCAUGGAUCGUGGUGGUCCCGGUGGAAUGUUCAGAGGUGGCCGUGGUGGAGACAG", "log2 enrichment": -0.149}
{"Sequence": "CAAGUCCUGUGCUACACAUCGUAUGUACCGAAUCGGGAAAGGAAAGGGGAAAGGGGAAAGUAUUAUGUUACGCCGUUCGGAUCUGCACUU", "log2 enrichment": 0.451}
{"Sequence": "UGGGCUGGAUGGCUCAGUUCCCCCAGACCUGGACUGGAAGGGCCAGCCACCUGCACCUCCUAAAAAGGGACUGCUGCAGAGACUCUUCAG", "log2 enrichment": -0.933}
{"Sequence": "ACCAUGCAGGUGGGCAUCUUUGGGAAGUGGGGCAAGGGGGGGAUAGGGAGGGGGGUAACACUUCGGGAACAGGUGGUCCCAGGUCGUUUC", "log2 enrichment": 0.843}
{"Sequence": "AAGUCCUGUGCUACACAUCGUAUGUACCGAAUCGGGAGGGAAAAAGGGUUUUUGGGAAAGUAUUAUGUUACGCCGUUCGGAUCUGCACUU", "log2 enrichment": 0.585}
{"data": "Study 2", "target": "POU domain, class 5, transcription factor 1, POU domain (Pou5f1, Mus musculus, UniProt P20263, residues 131-289)", "technique": "Spec-seq", "molecule type": "double-stranded DNA, one strand shown", "sample": "in vitro", "concentration": "not given", "notes": "whole probe, mean of replicates", "reference": "not given", "direction": "lower = stronger binding", "all sequences stand within": "GAGTCGTCTCGTCAGCAC … CCGTAGAGCACTCAGGTC", "UniProt P20263, sequence (131-289, looked up)": "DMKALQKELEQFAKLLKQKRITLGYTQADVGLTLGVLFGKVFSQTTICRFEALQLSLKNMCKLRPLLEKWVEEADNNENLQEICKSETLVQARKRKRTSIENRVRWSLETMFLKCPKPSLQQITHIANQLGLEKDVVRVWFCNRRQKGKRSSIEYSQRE"}
{"Sequence": "ATGCCTTG", "relative binding energy [ln ratio]": 0.751}
{"Sequence": "CGATTAAT", "relative binding energy [ln ratio]": 0.45}
{"Sequence": "ATGCGAGA", "relative binding energy [ln ratio]": 0.345}
{"Sequence": "ATTTCTAT", "relative binding energy [ln ratio]": 0.379}
{"Sequence": "ATGCCGAG", "relative binding energy [ln ratio]": 0.86}
{"Sequence": "ATCTGCAT", "relative binding energy [ln ratio]": -1.98}
{"Sequence": "ATGCATGG", "relative binding energy [ln ratio]": -0.386}
{"Sequence": "ATGATGAT", "relative binding energy [ln ratio]": 0.301}
{"Sequence": "ATGCCATG", "relative binding energy [ln ratio]": 0.373}
{"Sequence": "ATGCGGAC", "relative binding energy [ln ratio]": 0.366}
{"data": "Study 3", "target": "Myc proto-oncogene protein, bHLH-zipper, MAX partner unstated (MYC, Homo sapiens, UniProt P01106, residues 368-449)", "technique": "protein-binding microarray", "molecule type": "double-stranded DNA, one strand shown", "sample": "in vitro", "concentration": "not given", "notes": "k-mer, scored over probes, only values ≥0.25", "direction": "higher = stronger binding", "UniProt P01106, sequence (368-449, looked up)": "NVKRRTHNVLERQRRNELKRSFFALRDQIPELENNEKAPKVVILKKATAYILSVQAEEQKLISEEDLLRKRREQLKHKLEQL"}
{"Sequence": "GTGGTCCA", "E-score": 0.306}
{"Sequence": "GTCACGCA", "E-score": 0.302}
{"Sequence": "AAACACGT", "E-score": 0.389}
{"Sequence": "AGGACACG", "E-score": 0.266}
{"Sequence": "CGCCACGC", "E-score": 0.45}
{"Sequence": "CGCACCAC", "E-score": 0.349}
{"Sequence": "ATGCGGAC", "E-score": 0.346}
{"Sequence": "ACACGTGC", "E-score": 0.497}
{"Sequence": "AGTATGGC", "E-score": 0.303}
{"Sequence": "ACGTGCGC", "E-score": 0.436}
{"Sequence": "CGTGTCCA", "E-score": 0.343}
{"Sequence": "GTGTGCTA", "E-score": 0.286}
{"Sequence": "CCACGCAC", "E-score": 0.417}
{"data": "Mixed results"}
{"Substance": "PhoQ, residues 284 288 289 292 302 303 ASTSDA", "target": "PhoP, residues 12 14 15 18 19 MHTVL (Escherichia coli, UniProt P23836)", "test": "Sort-seq, measured: YFP reporter", "system": "E. coli", "setting": "PhoQ-PhoP variant library, added: 10 µM Mg2+", "how to read": "reference: high Mg2+ state, higher = stronger signaling", "endpoint": "fold induction", "value": 7.96}
